Results from different studies.
A part holds a random share of what one study measured. “And” joins repeats or separate records; there may be more than shown.
Sequence of UniProt P42336 (whole entry, unmodified, looked up): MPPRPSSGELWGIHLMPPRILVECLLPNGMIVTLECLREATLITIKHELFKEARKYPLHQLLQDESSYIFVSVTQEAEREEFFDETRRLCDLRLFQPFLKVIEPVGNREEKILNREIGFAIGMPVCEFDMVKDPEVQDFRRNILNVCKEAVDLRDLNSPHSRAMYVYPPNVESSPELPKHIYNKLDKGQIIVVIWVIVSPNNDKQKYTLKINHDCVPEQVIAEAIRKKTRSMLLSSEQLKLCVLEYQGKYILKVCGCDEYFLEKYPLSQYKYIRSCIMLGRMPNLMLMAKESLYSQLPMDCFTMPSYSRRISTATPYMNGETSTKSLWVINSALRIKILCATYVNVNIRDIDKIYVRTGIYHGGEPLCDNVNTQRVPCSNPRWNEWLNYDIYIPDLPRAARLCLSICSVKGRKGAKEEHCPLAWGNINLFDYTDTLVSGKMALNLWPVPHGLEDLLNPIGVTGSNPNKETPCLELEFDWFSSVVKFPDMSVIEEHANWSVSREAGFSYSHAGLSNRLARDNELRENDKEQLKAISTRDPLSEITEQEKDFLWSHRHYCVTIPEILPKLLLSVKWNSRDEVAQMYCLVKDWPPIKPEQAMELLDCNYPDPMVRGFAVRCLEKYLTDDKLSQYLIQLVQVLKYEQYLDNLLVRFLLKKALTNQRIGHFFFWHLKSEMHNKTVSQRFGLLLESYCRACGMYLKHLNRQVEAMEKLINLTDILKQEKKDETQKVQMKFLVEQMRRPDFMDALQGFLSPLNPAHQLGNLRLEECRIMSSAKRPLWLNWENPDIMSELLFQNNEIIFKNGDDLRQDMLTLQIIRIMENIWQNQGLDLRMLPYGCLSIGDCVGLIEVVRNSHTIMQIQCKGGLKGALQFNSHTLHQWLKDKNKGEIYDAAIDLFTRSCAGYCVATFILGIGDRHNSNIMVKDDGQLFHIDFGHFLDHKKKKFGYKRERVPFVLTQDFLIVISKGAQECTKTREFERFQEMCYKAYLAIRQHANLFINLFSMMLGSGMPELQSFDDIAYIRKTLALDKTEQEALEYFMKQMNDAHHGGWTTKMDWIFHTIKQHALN
Sequence of UniProt Q9UK32 (whole entry, looked up): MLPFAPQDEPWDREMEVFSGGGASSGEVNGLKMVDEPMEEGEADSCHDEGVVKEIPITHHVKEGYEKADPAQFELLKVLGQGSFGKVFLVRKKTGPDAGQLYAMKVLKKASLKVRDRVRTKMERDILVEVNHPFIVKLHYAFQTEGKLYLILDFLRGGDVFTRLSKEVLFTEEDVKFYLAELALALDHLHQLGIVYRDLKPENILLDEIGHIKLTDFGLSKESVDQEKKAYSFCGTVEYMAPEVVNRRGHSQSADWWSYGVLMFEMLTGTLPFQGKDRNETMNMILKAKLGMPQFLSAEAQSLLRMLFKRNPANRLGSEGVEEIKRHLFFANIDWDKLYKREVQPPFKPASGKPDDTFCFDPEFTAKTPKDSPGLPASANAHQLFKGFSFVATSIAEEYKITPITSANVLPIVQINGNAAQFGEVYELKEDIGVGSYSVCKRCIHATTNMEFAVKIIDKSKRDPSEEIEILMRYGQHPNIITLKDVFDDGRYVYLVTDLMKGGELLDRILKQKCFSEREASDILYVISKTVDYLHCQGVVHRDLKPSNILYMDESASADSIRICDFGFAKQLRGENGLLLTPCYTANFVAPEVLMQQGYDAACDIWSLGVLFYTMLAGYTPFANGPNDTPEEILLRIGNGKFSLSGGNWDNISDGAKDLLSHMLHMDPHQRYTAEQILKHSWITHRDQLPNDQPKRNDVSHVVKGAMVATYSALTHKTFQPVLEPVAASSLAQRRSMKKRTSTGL
Sequence of UniProt P51451 (whole entry, looked up): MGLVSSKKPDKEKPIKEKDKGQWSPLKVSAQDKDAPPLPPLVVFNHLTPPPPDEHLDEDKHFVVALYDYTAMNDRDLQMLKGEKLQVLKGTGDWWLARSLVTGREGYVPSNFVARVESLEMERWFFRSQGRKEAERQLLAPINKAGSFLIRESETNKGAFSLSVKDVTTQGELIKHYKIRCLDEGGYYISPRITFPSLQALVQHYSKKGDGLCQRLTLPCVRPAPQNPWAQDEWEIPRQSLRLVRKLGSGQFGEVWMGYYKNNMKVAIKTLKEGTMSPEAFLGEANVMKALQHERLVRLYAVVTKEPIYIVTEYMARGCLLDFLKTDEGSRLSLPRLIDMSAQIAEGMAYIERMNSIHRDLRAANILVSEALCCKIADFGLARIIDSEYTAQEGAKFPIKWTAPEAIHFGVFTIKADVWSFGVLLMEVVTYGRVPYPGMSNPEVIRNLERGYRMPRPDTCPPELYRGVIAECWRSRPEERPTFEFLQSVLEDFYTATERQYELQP
Sequence of UniProt Q9BYP7 (whole entry, looked up): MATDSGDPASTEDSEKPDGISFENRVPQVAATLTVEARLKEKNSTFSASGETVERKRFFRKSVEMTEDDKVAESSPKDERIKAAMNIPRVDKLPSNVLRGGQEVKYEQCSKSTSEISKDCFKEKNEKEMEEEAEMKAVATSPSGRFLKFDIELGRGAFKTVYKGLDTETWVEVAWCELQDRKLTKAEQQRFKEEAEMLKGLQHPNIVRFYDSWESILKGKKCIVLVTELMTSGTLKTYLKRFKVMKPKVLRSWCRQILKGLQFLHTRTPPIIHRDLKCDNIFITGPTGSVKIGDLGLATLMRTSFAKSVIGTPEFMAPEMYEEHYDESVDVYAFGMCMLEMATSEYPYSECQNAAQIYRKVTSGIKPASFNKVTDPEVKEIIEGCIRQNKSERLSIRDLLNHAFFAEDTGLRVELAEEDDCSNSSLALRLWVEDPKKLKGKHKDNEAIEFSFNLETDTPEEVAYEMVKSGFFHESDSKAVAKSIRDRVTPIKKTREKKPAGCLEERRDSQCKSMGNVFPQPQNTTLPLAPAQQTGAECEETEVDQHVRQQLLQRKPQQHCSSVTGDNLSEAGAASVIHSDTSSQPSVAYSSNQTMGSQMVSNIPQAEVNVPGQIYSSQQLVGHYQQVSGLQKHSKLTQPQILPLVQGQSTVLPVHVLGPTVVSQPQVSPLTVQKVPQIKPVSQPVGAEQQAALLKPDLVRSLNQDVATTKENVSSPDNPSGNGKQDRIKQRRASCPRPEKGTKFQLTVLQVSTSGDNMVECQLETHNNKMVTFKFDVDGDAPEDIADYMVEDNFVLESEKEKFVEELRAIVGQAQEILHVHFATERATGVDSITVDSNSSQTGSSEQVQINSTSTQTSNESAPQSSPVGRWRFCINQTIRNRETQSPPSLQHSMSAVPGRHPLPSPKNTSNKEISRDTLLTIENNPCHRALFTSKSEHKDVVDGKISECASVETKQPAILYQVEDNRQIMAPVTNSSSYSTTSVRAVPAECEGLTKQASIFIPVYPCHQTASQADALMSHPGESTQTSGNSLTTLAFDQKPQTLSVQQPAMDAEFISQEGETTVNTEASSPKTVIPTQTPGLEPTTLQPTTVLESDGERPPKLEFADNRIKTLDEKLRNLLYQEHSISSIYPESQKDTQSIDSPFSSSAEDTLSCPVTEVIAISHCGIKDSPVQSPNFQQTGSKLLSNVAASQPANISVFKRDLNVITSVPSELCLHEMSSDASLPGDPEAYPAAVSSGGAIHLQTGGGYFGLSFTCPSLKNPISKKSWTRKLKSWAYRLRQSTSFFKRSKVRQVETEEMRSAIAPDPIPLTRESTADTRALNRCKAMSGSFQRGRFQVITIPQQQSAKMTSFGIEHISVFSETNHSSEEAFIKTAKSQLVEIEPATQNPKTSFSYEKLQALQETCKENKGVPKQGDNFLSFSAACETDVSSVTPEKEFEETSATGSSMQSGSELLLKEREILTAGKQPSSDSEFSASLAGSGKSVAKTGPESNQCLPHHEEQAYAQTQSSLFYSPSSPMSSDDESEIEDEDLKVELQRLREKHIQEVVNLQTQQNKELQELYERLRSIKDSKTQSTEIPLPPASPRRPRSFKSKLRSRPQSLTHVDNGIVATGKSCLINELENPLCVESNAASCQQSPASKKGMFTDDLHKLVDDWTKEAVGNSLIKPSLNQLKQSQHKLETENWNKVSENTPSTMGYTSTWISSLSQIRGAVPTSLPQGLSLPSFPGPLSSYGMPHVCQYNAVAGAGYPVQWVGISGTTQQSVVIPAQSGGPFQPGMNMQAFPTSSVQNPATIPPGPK
Sequence of UniProt P51956 (whole entry, looked up): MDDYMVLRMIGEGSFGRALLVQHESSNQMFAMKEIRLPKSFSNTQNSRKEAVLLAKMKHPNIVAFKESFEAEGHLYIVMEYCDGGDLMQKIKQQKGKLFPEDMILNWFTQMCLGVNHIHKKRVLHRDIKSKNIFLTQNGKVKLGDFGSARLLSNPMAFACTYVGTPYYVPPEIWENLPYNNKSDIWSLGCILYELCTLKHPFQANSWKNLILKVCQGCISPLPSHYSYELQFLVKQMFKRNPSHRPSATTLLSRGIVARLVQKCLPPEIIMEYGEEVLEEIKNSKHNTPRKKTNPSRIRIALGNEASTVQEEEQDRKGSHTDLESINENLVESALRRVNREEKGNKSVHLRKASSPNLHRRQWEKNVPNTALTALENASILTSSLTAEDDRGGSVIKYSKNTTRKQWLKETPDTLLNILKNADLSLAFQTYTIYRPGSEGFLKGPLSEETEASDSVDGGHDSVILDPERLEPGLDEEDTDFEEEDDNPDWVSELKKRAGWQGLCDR
Sequence of UniProt P48730 (whole entry, looked up): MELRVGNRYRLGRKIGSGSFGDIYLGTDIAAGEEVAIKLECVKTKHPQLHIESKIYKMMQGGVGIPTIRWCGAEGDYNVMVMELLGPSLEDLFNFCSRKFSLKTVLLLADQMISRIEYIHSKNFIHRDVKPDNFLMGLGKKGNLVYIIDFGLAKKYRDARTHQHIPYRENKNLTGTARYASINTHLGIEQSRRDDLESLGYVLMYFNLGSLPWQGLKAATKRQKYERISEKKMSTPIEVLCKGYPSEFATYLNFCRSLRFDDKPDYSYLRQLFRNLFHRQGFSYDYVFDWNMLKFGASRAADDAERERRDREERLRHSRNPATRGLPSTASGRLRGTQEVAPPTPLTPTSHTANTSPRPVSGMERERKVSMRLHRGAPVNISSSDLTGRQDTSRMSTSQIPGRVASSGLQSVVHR

Study 1 — endpoint: inhibition
SMILES: CCCCCCCCCCCCCCCCOP(=O)([O-])OCC[N+](C)(C)C
THP-1; host cell viability, high-content imaging; 40 µM: 102%
Leishmania donovani; parasite growth, imaging; THP-1; 0.1 µM, intracellular, amastigote: 5% and 9% and 4% and 2%
THP-1; 20 µM, cytotoxicity: 71%
THP-1; host cell growth; 2 µM: -2.62% and 5.83% and -1.05% and -0.8% and -2.18% and -0.89%
THP-1; host cell growth; 0.004 µM: -1.28% and 0.42% and -0.13% and -0.19% and -0.45% and -0.33%
THP-1; host cell growth; 4 µM: 5% and 7.44% and 8% and 9.21% and 9%

Study 2 — Structure (SMILES): CSc1cccnc1N1CCN(Cc2nc3ccccc3[nH]2)CC1; read-out: cell-free assay; method: competition with immobilised ligand; tested at: 1 µM; endpoint: remaining binding
MARK4 (Homo sapiens, UniProt Q96L34): 100%
CSNK1D (Homo sapiens, UniProt P48730): 100%
Aurora kinase C (AURKC, Homo sapiens, UniProt Q9UQB9): 100%
DMPK (Homo sapiens, UniProt Q09013): 81%
PIK3CA (Homo sapiens, UniProt P42336, E542K): 82%
PLK1 (Homo sapiens, UniProt P53350): 78%
ERN1 (Homo sapiens, UniProt O75460): 70%
CDK17 (Homo sapiens, UniProt Q00537): 100%
NEK3 (Homo sapiens, UniProt P51956): 88%
MAP3K3 (Homo sapiens, UniProt Q99759): 83%
MAP3K15 (Homo sapiens, UniProt Q6ZN16): 67%
STK10 (Homo sapiens, UniProt O94804): 87%
EGFR (Homo sapiens, UniProt P00533, del746-750): 100%
FLT3 (Homo sapiens, UniProt P36888, D835H): 65%
Receptor-type tyrosine-protein kinase FLT3, autoinhibited (FLT3, Homo sapiens, UniProt P36888): 91%
MET (Homo sapiens, UniProt P08581, M1250T): 98%
CDK13 (Homo sapiens, UniProt Q14004): 85%
SRC (Homo sapiens, UniProt P12931): 100%
Ribosomal protein S6 kinase alpha-6, C-terminal kinase domain (RPS6KA6, Homo sapiens, UniProt Q9UK32): 94%
PIK3CA (Homo sapiens, UniProt P42336, Q546K): 84%
NEK5 (Homo sapiens, UniProt Q6P3R8): 100%
SBK1 (Homo sapiens, UniProt Q52WX2): 99%
GSK3B (Homo sapiens, UniProt P49841): 78%
EPHA8 (Homo sapiens, UniProt P29322): 95%
LIM domain kinase 2 (LIMK2, Homo sapiens, UniProt P53671): 100%

Study 3 — SMILES: Cc1ccc(S(=O)(=O)/C=C/C#N)cc1; read-out: enzyme activity; mode: inhibitor; tested at: 0.5 µM; baseline: control; endpoint: remaining activity
PHKG1 (Homo sapiens, UniProt Q16816): 95.8%
Cyclin-dependent kinase 4, with cyclin D3 (CDK4, Homo sapiens, UniProt P11802): 100%
EPHA4 (Homo sapiens, UniProt P54764): 86.1%
MAP4K4 (Homo sapiens, UniProt O95819): 106%
STK17A (Homo sapiens, UniProt Q9UEE5): 97.8%
DYRK3 (Homo sapiens, UniProt O43781): 101%
PDPK1 (Homo sapiens, UniProt O15530): 102%
RPS6KA5 (Homo sapiens, UniProt O75582): 109%
STK16 (Homo sapiens, UniProt O75716): 88.3%
BLK (Homo sapiens, UniProt P51451): 103%
WNK3 (Homo sapiens, UniProt Q9BYP7): 110%
TSSK2 (Homo sapiens, UniProt Q96PF2): 103%
CAMK2B (Homo sapiens, UniProt Q13554): 106%
MAPKAPK3 (Homo sapiens, UniProt Q16644): 97.8%
HIPK4 (Homo sapiens, UniProt Q8NE63): 108%
Cyclin-dependent kinase 6, with cyclin D3 (CDK6, Homo sapiens, UniProt Q00534): 104%
HIPK2 (Homo sapiens, UniProt Q9H2X6): 83.9%
EPHB4 (Homo sapiens, UniProt P54760): 102%
RPS6KA6 (Homo sapiens, UniProt Q9UK32): 95.4%
Cyclin-dependent kinase 1, with cyclin B (CDK1, Homo sapiens, UniProt P06493): 92.3%
EPHB1 (Homo sapiens, UniProt P54762): 100%
SRMS (Homo sapiens, UniProt Q9H3Y6): 98.8%

Study 4 — host: human; medium: microsomes or S9; tested at: 2 µM; time: 0.5 h; endpoint: remaining compound
O=C(Nc1ccc(Cc2nnn[nH]2)cc1)C1CCN(c2ccc(Cl)cn2)CC1: 93.1%
CN(C)S(=O)(=O)c1ccc(Br)c2ccccc12: 7.63%
COc1ccc(C)cc1/N=c1/[nH]cnc2c1oc1ccccc12: 3.73%
Cc1ccc(C(=O)N2CCc3c([nH]cnc3=O)C2)s1: 54.7%
CC(C)OCCCNCc1ccccc1OCc1ccc(Cl)cc1Cl: 25.3%
CCC[C@@H]1CN(C(=O)c2ccc3c(=O)n(C)cnc3c2)C[C@H]1NC(C)=O: 92.2%
Cc1ccc(S(=O)(=O)NNc2ccc(S(=O)(=O)N(C(C)C)C(C)C)cn2)c(Cl)c1: 0%
CCOC1CC(Nc2cncc(-c3nncn3C)c2)C12CCCC2 (stereo not shown): 93%
O=C1Nc2ccccc2C1(c1c[nH]c2ccccc12)c1c[nH]c2ccccc12: 79.1%
COc1cccc(CCN[C@H]2CS(=O)(=O)C[C@@H]2S(=O)(=O)c2ccc(Cl)cc2)c1: 0.297%
Cc1cc(=O)n2nc(CN(C(=O)CC(C)C)c3ccc(F)cc3)nc2[nH]1: 93.7%

A few entries again (study 2):
EGFR (Homo sapiens, UniProt P00533, del746-750): 100%
FLT3 (Homo sapiens, UniProt P36888, D835H): 65%
Receptor-type tyrosine-protein kinase FLT3, autoinhibited (FLT3, Homo sapiens, UniProt P36888): 91%
MET (Homo sapiens, UniProt P08581, M1250T): 98%
CDK13 (Homo sapiens, UniProt Q14004): 85%
SRC (Homo sapiens, UniProt P12931): 100%
Ribosomal protein S6 kinase alpha-6, C-terminal kinase domain (RPS6KA6, Homo sapiens, UniProt Q9UK32): 94%
PIK3CA (Homo sapiens, UniProt P42336, Q546K): 84%
